{"data": "Assay results collected from several papers", "note": "Numbered parts are unrelated; each lists some results of a single study. Positions count from the first letter of the parent shown."}
{"data": "Sample 1", "target": "Sal-like protein 4, full length isoform A (SALL4, Homo sapiens, UniProt Q9UJQ4, residues 1-1053)", "method": "universal PBM", "molecule type": "double-stranded DNA, one strand shown", "sample": "in vitro", "concentration": "600 nM", "notes": "8-mer, flanks averaged, mean of replicates", "direction": "higher = stronger binding", "sequence of UniProt Q9UJQ4 (whole entry, looked up)": "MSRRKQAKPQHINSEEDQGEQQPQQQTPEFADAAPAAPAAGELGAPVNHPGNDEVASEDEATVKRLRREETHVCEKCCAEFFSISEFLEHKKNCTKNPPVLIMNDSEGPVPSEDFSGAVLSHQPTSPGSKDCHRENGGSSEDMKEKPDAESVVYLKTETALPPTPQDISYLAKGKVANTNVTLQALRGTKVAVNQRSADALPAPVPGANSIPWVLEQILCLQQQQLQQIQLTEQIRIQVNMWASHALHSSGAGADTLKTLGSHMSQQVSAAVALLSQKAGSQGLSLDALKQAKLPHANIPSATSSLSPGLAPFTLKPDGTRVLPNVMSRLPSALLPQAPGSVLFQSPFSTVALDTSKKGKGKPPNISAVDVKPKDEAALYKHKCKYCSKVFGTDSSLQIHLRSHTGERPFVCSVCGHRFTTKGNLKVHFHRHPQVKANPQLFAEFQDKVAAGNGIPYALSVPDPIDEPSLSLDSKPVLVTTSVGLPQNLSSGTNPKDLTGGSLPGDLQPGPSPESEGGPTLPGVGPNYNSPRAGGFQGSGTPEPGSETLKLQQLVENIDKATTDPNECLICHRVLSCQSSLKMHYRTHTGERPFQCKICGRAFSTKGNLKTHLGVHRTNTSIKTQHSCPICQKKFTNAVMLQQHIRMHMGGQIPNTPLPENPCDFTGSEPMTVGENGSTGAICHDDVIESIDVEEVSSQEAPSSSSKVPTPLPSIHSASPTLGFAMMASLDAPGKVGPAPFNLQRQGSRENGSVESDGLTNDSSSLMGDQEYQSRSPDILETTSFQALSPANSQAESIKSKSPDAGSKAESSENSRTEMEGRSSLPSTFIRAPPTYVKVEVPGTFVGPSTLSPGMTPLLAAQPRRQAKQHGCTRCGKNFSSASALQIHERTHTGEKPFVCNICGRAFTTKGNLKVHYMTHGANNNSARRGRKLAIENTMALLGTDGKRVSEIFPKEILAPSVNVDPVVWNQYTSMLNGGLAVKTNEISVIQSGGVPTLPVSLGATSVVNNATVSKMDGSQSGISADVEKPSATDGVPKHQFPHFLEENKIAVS"}
{"Strand": "ACCCATCA", "E-score": -0.103}
{"Strand": "AGGTGGGA", "E-score": -0.114}
{"Strand": "ATAAAGGC", "E-score": 0.151}
{"Strand": "CAAAGCCG", "E-score": -0.094}
{"Strand": "ATGCTGTA", "E-score": 0.178}
{"Strand": "CTTATAGC", "E-score": 0.113}
{"Strand": "GATAACTA", "E-score": 0.318}
{"Strand": "ACGCCTCT", "E-score": -0.119}
{"Strand": "CTTTGCTC", "E-score": -0.0878}
{"Strand": "GAAGTTGC", "E-score": -0.224}
{"Strand": "AGTTTCTC", "E-score": -0.0207}
{"Strand": "CATCGACA", "E-score": -0.075}
{"Strand": "CGGGCCTA", "E-score": -0.318}
{"Strand": "CCTGTAAG", "E-score": -0.0486}
{"Strand": "ACTTAGAT", "E-score": 0.0496}
{"Strand": "ATGTCCAA", "E-score": 0.147}
{"Strand": "AGGTCAAG", "E-score": -0.113}
{"Strand": "GAAGCAGA", "E-score": 0.0816}
{"Strand": "GTCACCTA", "E-score": -0.127}
{"Strand": "CGATGTAA", "E-score": 0.113}
{"Strand": "CAACGTAA", "E-score": 0.103}
{"Strand": "AGTCACTA", "E-score": 0.0472}
{"Strand": "CACGCGGA", "E-score": -0.101}
{"Strand": "CCTCACAG", "E-score": -0.103}
{"Strand": "AAGCACCC", "E-score": -0.271}
{"data": "Sample 2", "target": "FOS, bZIP domain (human)", "method": "DHFR protein complementation", "sample": "yeast", "notes": "single substitutions, most at no-binding floor", "reference": "wild-type JUN-FOS pair", "direction": "higher = stronger binding", "parent": "JUN, bZIP domain (human); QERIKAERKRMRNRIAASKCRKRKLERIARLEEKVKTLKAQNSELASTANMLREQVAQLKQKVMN; partner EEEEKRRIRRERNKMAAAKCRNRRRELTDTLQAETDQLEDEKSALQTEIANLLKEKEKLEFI"}
{"Variant": "K39Q", "binding fitness": "-0.318 natural log"}
{"Variant": "A40G", "binding fitness": "-0.261 natural log"}
{"Variant": "R53I", "binding fitness": "-0.962 natural log"}
{"Variant": "N42E", "binding fitness": "-1.1 natural log"}
{"Variant": "E33S", "binding fitness": "-0.217 natural log"}
{"Variant": "V56A", "binding fitness": "-1.25 natural log"}
{"Variant": "M51Y", "binding fitness": "-0.108 natural log"}
{"Variant": "L52H", "binding fitness": "-1.25 natural log"}
{"Variant": "T48K", "binding fitness": "0.0408 natural log"}
{"Variant": "L45Q", "binding fitness": "-1.35 natural log"}
{"Variant": "E54N", "binding fitness": "-0.148 natural log"}
{"Variant": "R53M", "binding fitness": "-0.734 natural log"}
{"Variant": "S47W", "binding fitness": "-0.152 natural log"}
{"Variant": "Q55E", "binding fitness": "0.00616 natural log"}
{"Variant": "E44C", "binding fitness": "-0.234 natural log"}
{"Variant": "L45F", "binding fitness": "-0.723 natural log"}
{"Variant": "R30D", "binding fitness": "0.11 natural log"}
{"Variant": "R30H", "binding fitness": "0.0615 natural log"}
{"Variant": "E32T", "binding fitness": "-0.0638 natural log"}
{"Variant": "S43A", "binding fitness": "0.124 natural log"}
{"Variant": "A29F", "binding fitness": "-0.245 natural log"}
{"Variant": "E44A", "binding fitness": "-0.0425 natural log"}
{"data": "Sample 3", "target": "Histone acetyltransferase KAT6A, winged helix 1, GST fusion (KAT6A, Homo sapiens, UniProt Q92794, residues 1-85)", "method": "protein binding microarray", "molecule type": "double-stranded DNA, one strand shown", "sample": "in vitro", "concentration": "not given", "notes": "8-mer, flanks averaged, mean of 2 arrays, mostly near background", "reference": "not given", "direction": "higher = stronger binding", "Target sequence (chain)": "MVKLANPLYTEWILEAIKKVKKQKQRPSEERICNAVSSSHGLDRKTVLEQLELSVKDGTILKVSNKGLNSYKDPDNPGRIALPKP"}
{"Strand": "CGCTGCAG", "E-score": 0.0604}
{"Strand": "AGTGGTGC", "E-score": -0.19}
{"Strand": "TGGTAAAA", "E-score": -0.174}
{"Strand": "GAAGCCCC", "E-score": 0.0549}
{"Strand": "TGAAATCA", "E-score": -0.0723}
{"Strand": "CGGGCTTA", "E-score": 0.22}
{"Strand": "AACATTCA", "E-score": -0.102}
{"Strand": "GCACGTTA", "E-score": -0.0821}
{"Strand": "ATAATCAC", "E-score": -0.0399}
{"Strand": "CGACGCCA", "E-score": 0.294}
{"Strand": "AGTGAATC", "E-score": -0.277}
{"Strand": "ACTTGGCG", "E-score": 0.0189}
{"Strand": "ACATTACG", "E-score": 0.0583}
{"Strand": "GTGGCACA", "E-score": -0.121}
{"Strand": "AACCCTAA", "E-score": -0.258}
{"Strand": "AGTAGCCA", "E-score": -0.17}
{"Strand": "CATCGCTA", "E-score": -0.11}
{"Strand": "TCGTCAAA", "E-score": -0.148}
{"Strand": "ATCGTTAG", "E-score": -0.0673}
{"Strand": "CCCTTTCA", "E-score": 0.0662}
{"Strand": "ATTCCGGA", "E-score": -0.0165}
{"Strand": "ATGCCGTA", "E-score": 0.386}
{"Strand": "GCGGTGCA", "E-score": 0.213}
{"Strand": "ACATTATA", "E-score": -0.141}
{"Strand": "ACCTGAAC", "E-score": -0.293}
{"data": "Sample 4", "target": "CCNE2, cyclin fold, Cln2 fusion (human)", "method": "yeast growth competition, sequencing", "sample": "yeast", "notes": "weak parent motif", "reference": "not given", "direction": "higher = stronger binding", "parent": "MASTL docking peptide (human); PMIAKNLMCELDE; partner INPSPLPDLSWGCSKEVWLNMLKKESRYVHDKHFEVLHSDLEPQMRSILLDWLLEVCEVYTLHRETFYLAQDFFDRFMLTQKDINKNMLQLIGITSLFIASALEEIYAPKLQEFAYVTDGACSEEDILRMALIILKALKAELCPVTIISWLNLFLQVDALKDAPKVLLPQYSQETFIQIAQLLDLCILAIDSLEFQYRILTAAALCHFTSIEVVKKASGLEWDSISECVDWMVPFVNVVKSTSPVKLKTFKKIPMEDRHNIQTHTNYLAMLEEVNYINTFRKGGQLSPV"}
{"Variant": "K5S", "normalised enrichment score": -0.413}
{"Variant": "K5W", "normalised enrichment score": -0.0933}
{"Variant": "C9L", "normalised enrichment score": -0.143}
{"Variant": "N6A", "normalised enrichment score": -0.228}
{"Variant": "E10R", "normalised enrichment score": 0.165}
{"Variant": "E10A", "normalised enrichment score": -0.137}
{"Variant": "E10W", "normalised enrichment score": 0.158}
{"Variant": "M2Y", "normalised enrichment score": 0.145}
{"Variant": "K5H", "normalised enrichment score": -0.54}
{"Variant": "D12W", "normalised enrichment score": 0.0788}
{"Variant": "L11N", "normalised enrichment score": -0.168}
{"Variant": "C9N", "normalised enrichment score": 0.0254}
{"Variant": "N6Q", "normalised enrichment score": -0.182}
{"Variant": "M8D", "normalised enrichment score": -0.0513}
{"Variant": "C9A", "normalised enrichment score": 0.0479}
{"Variant": "A4D", "normalised enrichment score": 0.0921}
{"Variant": "C9F", "normalised enrichment score": 0.397}
{"Variant": "L7W", "normalised enrichment score": -0.116}
{"Variant": "K5F", "normalised enrichment score": -0.0805}
{"Variant": "M2I", "normalised enrichment score": -0.0383}
{"Variant": "N6W", "normalised enrichment score": 0.158}
{"Variant": "N6R", "normalised enrichment score": 0.167}
{"Variant": "L11P", "normalised enrichment score": -0.232}
{"Variant": "E10C", "normalised enrichment score": -0.166}
{"Variant": "E10T", "normalised enrichment score": 0.0417}
{"data": "Other studies, line by line"}
{"Molecule": "PhoQ, residues 284 288 289 292 302 303 AGGLSV", "target": "PhoP, residues 12 14 15 18 19 AQALL (Escherichia coli, UniProt P23836)", "test": "Sort-seq, refers to: YFP reporter", "test system": "E. coli", "conditions": "PhoQ-PhoP variant library, together with: 10 µM Mg2+", "scale": "reference: high Mg2+ state, higher = stronger signaling", "quantity": "fold induction", "value": 3.15}
{"note": "Excerpt of the above (sample 3):"}
{"Strand": "CGACGCCA", "E-score": 0.294}
{"Strand": "AGTGAATC", "E-score": -0.277}
{"Strand": "ACTTGGCG", "E-score": 0.0189}
{"Strand": "ACATTACG", "E-score": 0.0583}
{"Strand": "GTGGCACA", "E-score": -0.121}
{"Strand": "AACCCTAA", "E-score": -0.258}
{"Strand": "AGTAGCCA", "E-score": -0.17}
{"Strand": "CATCGCTA", "E-score": -0.11}
{"Strand": "TCGTCAAA", "E-score": -0.148}
{"Strand": "ATCGTTAG", "E-score": -0.0673}
{"Strand": "CCCTTTCA", "E-score": 0.0662}
{"Strand": "ATTCCGGA", "E-score": -0.0165}
{"Strand": "ATGCCGTA", "E-score": 0.386}
